Published values pooled from the literature.
Numbers after ± are the reported error.
Cell line: NCI-H460

Structure (SMILES) | test | test system | setting | IC50
CCC1=C(CC)C2=[N+]3C1=Cc1c(CC)c(CC)c4[n]1[Ir-3]31([Cl])([C]#[O+])[n]3c(c(CC)c(CC)c3=CC3=[N+]1C(=C4)C(CC)=C3CC)=C2 | cell growth or viability | – | dark | > 50 µM
N#Cc1c(-c2ccc(Cl)cc2)cc(-c2cccc3ccccc23)n2c(Cc3ccccc3)nnc12 | cell growth or viability, MTT | – | 72 h | 0.769 µM
C=C1C2C(OC(=O)c3ccccc3)C3C4N(C)C5C(O)C3(C1O)C(C2OC(C)=O)C41C(OC(C)=O)C(OC(=O)c2ccccc2)CC(C)(C=O)C51 (centres unmarked) | cell growth or viability, MTT | – | – | 26.5 µM
Clc1ccc2[nH]c(-c3cc4ccccc4nc3Cl)nc2c1 | cell growth or viability, MTT | – | 48 h | 22.6 µM
CC(C)Cn1cc(-c2ccnc(Nc3ccc(OCCCCCCC(=O)NO)cc3)n2)nn1 | cell growth or viability, SRB | – | 72 h | 2.25 µM
O=C(NCCCCCNc1n[n+]([O-])c2ccccc2[n+]1[O-])C(F)(F)F | cytotoxicity, MTT | 10% FBS medium | 6 h + 18 h, hypoxia 3% O2 | 43 ± 12.6 µM
CN1CCN(c2ccc(Nc3nccc(-c4cn(C5CCCCC5)nn4)n3)cc2)CC1 | cell growth or viability, SRB | – | 72 h | > 10 µM
COc1ccc2nc(Cl)c(-c3nc4cc(Cl)ccc4[nH]3)cc2c1 | cell growth or viability, MTT | – | 48 h | 23.8 µM
CCC1=C(CC)C2=[N+]3C1=Cc1c(CC)c(CC)c4[n]1[Ir-3]31([C]#[N+]c3ccc(OC)cc3)([C]#[N+]c3ccc(OC)cc3)[n]3c(c(CC)c(CC)c3=CC3=[N+]1C(=C4)C(CC)=C3CC)=C2.F[B-](F)(F)F | cell growth or viability | – | dark | 2.9 µM
[NH2][Pt]1([NH2])([Cl])([O]C(=O)C(F)(F)F)[O]C(=O)C2(CC(=O)C2)C(=O)[O]1 | cell growth or viability, MTT | – | – | 5.46 µM
N#Cc1c(-c2cccs2)cc(-c2cccc3ccccc23)nc1Nc1ccc(Nc2nc(-c3cccc4ccccc34)cc(-c3cccs3)c2C#N)cc1 | cell growth or viability, MTT | – | 72 h | 0.066 µM
CC(=O)O[C@@H]1CC[C@@]2(C)[C@@H](CC[C@]3(C)[C@@H]2C(=O)C=C2[C@@H]4[C@@H](C)[C@H](C)CC[C@]4(C)CC[C@]23C)[C@@]1(C)C(=O)NCCNC(=O)CCCCBr | cell growth or viability, MTT | – | 48 h | 9.36 µM
O=c1[nH]c2ccccc2nc1/C=C/c1ccccc1Br | cell growth or viability, MTT | – | 72 h | 9.62 µM
CCCC(CCC)C(=O)NCCNC(=O)[C@@]1(C)[C@H](O)CC[C@@]2(C)[C@H]1CC[C@]1(C)[C@@H]2C(=O)C=C2[C@@H]3[C@@H](C)[C@H](C)CC[C@]3(C)CC[C@]21C | cell growth or viability, MTT | – | 48 h | > 30 µM
O=C(NCCCCCCCCNc1n[n+]([O-])c2ccccc2[n+]1[O-])C(F)(F)F | cytotoxicity, MTT | – | 24 h, normoxia 20% O2 | 91 ± 50.9 µM
Clc1cc2nc(-c3cc4cc5c(cc4nc3Cl)OCO5)[nH]c2cc1Cl | cell growth or viability, MTT | – | 48 h | > 100 µM
CCOC12C(O)C(OC)C3(O)CC(C1C3OC(=O)c1ccccc1)C13C(OC)CCC4(COC)CN(C)C1C2C(OC)C43 (centres unmarked) | cell growth or viability, MTT | – | – | 13.9 µM
CC(C)Cn1cc(-c2ccnc(Nc3ccc(C(=O)Nc4ccccc4N)cc3)n2)nn1 | cell growth or viability, SRB | – | 72 h | 7.02 µM
Cc1ccc2nc(Cl)c(-c3nc4cc(Cl)c(Cl)cc4[nH]3)cc2c1 | cell growth or viability, MTT | – | 48 h | > 100 µM
CC(=O)O[C@@H]1CC[C@@]2(C)[C@@H](CC[C@]3(C)[C@@H]2C(=O)C=C2[C@@H]4[C@@H](C)[C@H](C)CC[C@]4(C)CC[C@]23C)[C@@]1(C)C(=O)NCCNC(=O)CCBr | cell growth or viability, MTT | – | 48 h | 11.9 µM
Cc1ccc2nc(Cl)c(-c3nc4ccccc4[nH]3)cc2c1 | cell growth or viability, MTT | – | 48 h | > 100 µM
CC(=O)O[C@@H]1CC[C@@]2(C)[C@@H](CC[C@]3(C)[C@@H]2C(=O)C=C2[C@@H]4[C@@H](C)[C@H](C)CC[C@]4(C)CC[C@]23C)[C@@]1(C)C(=O)NCCNC(=O)CCCCCCCCCC[P+](c1ccccc1)(c1ccccc1)c1ccccc1 | cell growth or viability, MTT | – | 48 h | 2.31 µM
O=[N+]([O-])[O-].O=[N+]([O-])[O-].[Cu+2].[Cu+2].c1ccc(-c2nc(-c3ccc4c(c3)OCO4)n[n-]2)nc1.c1ccc(-c2nc(-c3ccc4c(c3)OCO4)n[n-]2)nc1 | cell growth or viability, MTT | – | 24 h | 5.27 µM
CCCCCC(=O)NCCNC(=O)[C@]1(C)[C@@H]2CC[C@]3(C)[C@H](C(=O)C=C4[C@@H]5[C@@H](C)[C@H](C)CC[C@]5(C)CC[C@]43C)[C@@]2(C)CC[C@H]1OC(C)=O | cell growth or viability, MTT | – | 48 h | 14.5 µM
O=C(NCCNc1n[n+]([O-])c2ccccc2[n+]1[O-])C(F)(F)F | cytotoxicity, MTT | 10% FBS medium | 6 h + 18 h, hypoxia 3% O2 | 17.2 ± 4 µM
CCCCCCC(=O)NCCNC(=O)[C@@]1(C)[C@H](O)CC[C@@]2(C)[C@H]1CC[C@]1(C)[C@@H]2C(=O)C=C2[C@@H]3[C@@H](C)[C@H](C)CC[C@]3(C)CC[C@]21C | cell growth or viability, MTT | – | 48 h | 13.3 µM
Cc1ccc2nc(Cl)c(-c3nc4cc(F)ccc4[nH]3)cc2c1 | cell growth or viability, MTT | – | 48 h | > 100 µM
CCCCCCC(=O)NCCNC(=O)[C@]1(C)[C@@H]2CC[C@]3(C)[C@H](C(=O)C=C4[C@@H]5[C@@H](C)[C@H](C)CC[C@]5(C)CC[C@]43C)[C@@]2(C)CC[C@H]1OC(C)=O | cell growth or viability, MTT | – | 48 h | 10.8 µM
O=S(=O)([O-])[O-].[Cu+2].c1ccc(-c2nnc(-c3ccc4c(c3)OCO4)[nH]2)nc1 | cell growth or viability, MTT | – | 24 h | 8.59 µM

Some of these lines once more:
Structure (SMILES) | test | test system | setting | IC50
CN1CCN(c2ccc(Nc3nccc(-c4cn(C5CCCCC5)nn4)n3)cc2)CC1 | cell growth or viability, SRB | – | 72 h | > 10 µM
COc1ccc2nc(Cl)c(-c3nc4cc(Cl)ccc4[nH]3)cc2c1 | cell growth or viability, MTT | – | 48 h | 23.8 µM
CCC1=C(CC)C2=[N+]3C1=Cc1c(CC)c(CC)c4[n]1[Ir-3]31([C]#[N+]c3ccc(OC)cc3)([C]#[N+]c3ccc(OC)cc3)[n]3c(c(CC)c(CC)c3=CC3=[N+]1C(=C4)C(CC)=C3CC)=C2.F[B-](F)(F)F | cell growth or viability | – | dark | 2.9 µM
